Published values from different studies.
Numbered parts are unrelated; each lists some results of a single study. Substitutions count along the parent as printed.

Block 1
Target: RNA binding protein fox-1 homolog 2, RRM domain, GST-SBP tag (RBFOX2, Homo sapiens, UniProt O43251-10, residues 100-194)
Method: RNA Bind-n-Seq
Molecule type: RNA
Matrix: in vitro
Concentration: 365 nM
Setting: natural RNA segment, single round, ends assumed
Baseline: no-protein control
Direction: higher = stronger binding
Endpoint: RBNS enrichment (R)
Constant ends, left off below: GGGAGUUCUACAGUCCGACGAUC … UGGAAUUCUCGGGUGCCAA
Residues (chain): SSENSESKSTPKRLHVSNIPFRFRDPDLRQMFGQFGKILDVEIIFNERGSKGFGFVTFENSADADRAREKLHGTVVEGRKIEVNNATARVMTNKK
Sequence = CUAUAAGUGAGACACUGUGCUGCACUGGCUGAAGACUUAAUGCUGUUACUCUAGGUAGUUGGAUCCCUUGAUGGUGGGGACUGUCUUUACUAAAGCUACAUCAGGCCUAC; value = 0.454
Sequence = GGUCUCUUCUGCCAUUGUGCUGGUCCCAUCCCAAGAAUUGUAGGACAGAGACCACACUGGGUCGGCGGACACAAAGUCCAUCCAGGACCCAGGCCGCAGAGGGAGCAGGA; value = 0.889
Sequence = GAAGAUUGGCUUGAAUUAGAUCAUAAUCAUGUGUGAUCCCAUCAUGAAUUCAUUGGAAUUUGUGUUGCAUGUAAGGCAAUCUUUCCUGUUGUAAAUCUUCCUUUUUUAAU; value = 2.94
Sequence = AGCUUGCCACUCGGCUAGCGAAAAUAAUUAACAUUAUUAUGAGAAAGUGGAUUUAUCUAAAGUGGAACCAGCUGACAUUAUAUCUGUAUCGUAUGGAGAAUGAUGAAGGG; value = 0.324
Sequence = UUAGAUGAUGUGACCUCUAAUAUUUAUCUAAUAAAUAUGUAUUCAGAUGAAACCUGUAUAUUAGGUGUUCAUGUGGUUAUUUUGUAUUUAAAGAUCAAAUUAUUUGAUUA; value = 0.42

Block 2
Target: Interferon regulatory factor 7, full length, phosphomimetic (IRF7, Homo sapiens, UniProt Q92985, residues 1-503, S471D/S472D/S475D/S476D/S477D/S483D/S484D/S487D)
Chain of UniProt Q92985 (whole entry, unmodified, looked up): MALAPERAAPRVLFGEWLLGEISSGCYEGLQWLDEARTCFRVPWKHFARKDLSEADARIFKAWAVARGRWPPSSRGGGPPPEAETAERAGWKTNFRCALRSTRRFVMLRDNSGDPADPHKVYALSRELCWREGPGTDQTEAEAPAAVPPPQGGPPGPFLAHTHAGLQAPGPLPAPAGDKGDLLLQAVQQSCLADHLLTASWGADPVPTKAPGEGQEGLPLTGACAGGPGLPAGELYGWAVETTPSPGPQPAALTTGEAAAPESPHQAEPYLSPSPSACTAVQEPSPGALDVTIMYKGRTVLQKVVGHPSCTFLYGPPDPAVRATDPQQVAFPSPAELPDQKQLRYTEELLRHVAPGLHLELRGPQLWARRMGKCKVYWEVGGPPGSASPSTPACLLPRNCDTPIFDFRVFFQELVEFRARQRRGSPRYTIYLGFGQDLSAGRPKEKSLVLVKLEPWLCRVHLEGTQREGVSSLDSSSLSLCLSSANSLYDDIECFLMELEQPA
Method: protein-binding microarray
Molecule type: double-stranded DNA, one strand shown
Matrix: in vitro
Concentration: 2200 nM top
Setting: 60-bp whole probe
Added: salmon DNA 0.4 mg/ml
Baseline: random background probes
Direction: higher = stronger binding
Endpoint: fitted relative affinity
Constant ends, left off below: GCCTAGCAC … GTCTTGATTCGCTTGACGCTGCTG
Sequence = TAACATATTCTCTTCTTGCAGTGCTAG; value = 1.31 z-score
Sequence = TTAGGACTGGACCTTCGGTTAGTGCTA; value = -0.281 z-score
Sequence = TTAGGTCTCGGACTGGGTTTGTGCTAG; value = -0.404 z-score
Sequence = TTAGGTATCCTTCTTCTTTAGTGCTAG; value = 0.954 z-score
Sequence = GACGACCTCAGTATCGAGACGTGCTAG; value = -0.112 z-score
Sequence = GAGGAACTGGGGTTTCGAGACGTGCTA; value = 0.623 z-score
Sequence = TGAGTGAAAGGCCCATACATGTGCTAG; value = -0.691 z-score
Sequence = TCATGTTCCCTCATCAGACTGTGCTAG; value = 2.29 z-score

Block 3
Target: CCNF, cyclin fold, Cln2 fusion (human)
Method: yeast growth competition, sequencing
Matrix: yeast
Setting: strong parent motif
Baseline: not given
Direction: higher = stronger binding
Endpoint: normalised enrichment score
Starting sequence: CDC6 docking peptide (human); TLKGRRLVFDNQL
Change = TLKGRRLGFDNQL [V8G]; value = 3.71
Change = SLKGRRLVFDNQL [T1S]; value = 8.05
Change = TLFGRRLVFDNQL [K3F]; value = 8.09
Change = TTKGRRLVFDNQL [L2T]; value = 7.59
Change = TMKGRRLVFDNQL [L2M]; value = 8.08
Change = LLKGRRLVFDNQL [T1L]; value = 8.57
Change = TLKGRRLVFDNIL [Q12I]; value = 9.06

Single results of other studies
Substance = PhoQ, residues 284 288 289 292 302 303 MLMVEA; target = PhoP, residues 12 14 15 18 19 AGCRL (Escherichia coli, UniProt P23836); test = Sort-seq, measured: YFP reporter; system = E. coli; setting = PhoQ-PhoP variant library, added: 10 µM Mg2+; how to read = baseline: high Mg2+ state, higher = stronger signaling; endpoint = fold induction; value = 7.85

Some of these lines once more (block 3):
Change = LLKGRRLVFDNQL [T1L]; value = 8.57
Change = TMKGRRLVFDNQL [L2M]; value = 8.08
Change = TLFGRRLVFDNQL [K3F]; value = 8.09
